Assay results of several laboratories.
Every numbered part comes from another study and shows a few of its results, in no order.
Chain of UniProt P10721 (whole entry, unmodified, looked up): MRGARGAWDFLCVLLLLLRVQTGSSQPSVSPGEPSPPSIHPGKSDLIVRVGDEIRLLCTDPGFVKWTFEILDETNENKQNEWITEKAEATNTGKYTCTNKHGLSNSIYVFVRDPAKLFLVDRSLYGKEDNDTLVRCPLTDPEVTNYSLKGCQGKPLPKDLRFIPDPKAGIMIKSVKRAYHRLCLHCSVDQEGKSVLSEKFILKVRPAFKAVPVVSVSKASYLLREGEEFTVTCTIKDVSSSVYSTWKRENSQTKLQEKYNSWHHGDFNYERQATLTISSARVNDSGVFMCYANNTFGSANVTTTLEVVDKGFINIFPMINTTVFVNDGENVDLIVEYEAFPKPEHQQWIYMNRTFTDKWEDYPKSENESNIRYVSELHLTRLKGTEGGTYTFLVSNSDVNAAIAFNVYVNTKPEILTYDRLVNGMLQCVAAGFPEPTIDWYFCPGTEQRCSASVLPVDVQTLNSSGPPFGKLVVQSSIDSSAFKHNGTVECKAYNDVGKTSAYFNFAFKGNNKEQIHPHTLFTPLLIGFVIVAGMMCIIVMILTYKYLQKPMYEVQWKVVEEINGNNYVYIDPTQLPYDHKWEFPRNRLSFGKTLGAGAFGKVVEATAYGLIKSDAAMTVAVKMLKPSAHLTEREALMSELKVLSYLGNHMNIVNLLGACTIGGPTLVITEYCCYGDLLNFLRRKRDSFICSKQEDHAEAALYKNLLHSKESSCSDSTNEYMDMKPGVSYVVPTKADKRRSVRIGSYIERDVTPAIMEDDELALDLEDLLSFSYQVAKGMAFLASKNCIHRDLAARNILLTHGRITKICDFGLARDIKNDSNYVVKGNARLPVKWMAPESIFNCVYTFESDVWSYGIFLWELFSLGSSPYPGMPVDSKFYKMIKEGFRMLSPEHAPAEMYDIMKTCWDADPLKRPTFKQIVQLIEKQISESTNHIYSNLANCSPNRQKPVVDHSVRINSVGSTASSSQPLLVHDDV
Chain of UniProt Q16832 (whole entry, looked up): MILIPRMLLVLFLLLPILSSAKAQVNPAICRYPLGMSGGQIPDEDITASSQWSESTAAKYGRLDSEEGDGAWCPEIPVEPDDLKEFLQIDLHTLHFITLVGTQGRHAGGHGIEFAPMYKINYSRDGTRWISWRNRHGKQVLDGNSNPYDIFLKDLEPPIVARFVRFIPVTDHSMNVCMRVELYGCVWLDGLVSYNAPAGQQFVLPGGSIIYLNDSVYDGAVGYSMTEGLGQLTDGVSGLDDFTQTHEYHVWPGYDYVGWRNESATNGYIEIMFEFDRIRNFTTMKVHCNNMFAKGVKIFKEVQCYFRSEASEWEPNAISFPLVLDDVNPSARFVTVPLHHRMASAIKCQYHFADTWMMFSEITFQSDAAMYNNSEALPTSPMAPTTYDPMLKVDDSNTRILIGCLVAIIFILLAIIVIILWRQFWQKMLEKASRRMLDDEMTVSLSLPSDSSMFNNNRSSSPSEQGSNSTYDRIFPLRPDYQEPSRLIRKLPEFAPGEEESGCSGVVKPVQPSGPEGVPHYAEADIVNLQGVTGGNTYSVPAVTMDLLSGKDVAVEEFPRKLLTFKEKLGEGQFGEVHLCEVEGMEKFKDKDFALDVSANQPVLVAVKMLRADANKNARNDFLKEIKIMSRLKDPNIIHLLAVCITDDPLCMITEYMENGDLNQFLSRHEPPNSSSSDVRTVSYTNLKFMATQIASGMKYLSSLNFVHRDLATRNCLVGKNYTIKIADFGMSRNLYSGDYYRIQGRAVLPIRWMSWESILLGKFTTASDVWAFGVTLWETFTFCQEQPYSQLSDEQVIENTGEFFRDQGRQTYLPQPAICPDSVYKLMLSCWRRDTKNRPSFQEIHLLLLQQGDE
Chain of UniProt P49761 (whole entry, looked up): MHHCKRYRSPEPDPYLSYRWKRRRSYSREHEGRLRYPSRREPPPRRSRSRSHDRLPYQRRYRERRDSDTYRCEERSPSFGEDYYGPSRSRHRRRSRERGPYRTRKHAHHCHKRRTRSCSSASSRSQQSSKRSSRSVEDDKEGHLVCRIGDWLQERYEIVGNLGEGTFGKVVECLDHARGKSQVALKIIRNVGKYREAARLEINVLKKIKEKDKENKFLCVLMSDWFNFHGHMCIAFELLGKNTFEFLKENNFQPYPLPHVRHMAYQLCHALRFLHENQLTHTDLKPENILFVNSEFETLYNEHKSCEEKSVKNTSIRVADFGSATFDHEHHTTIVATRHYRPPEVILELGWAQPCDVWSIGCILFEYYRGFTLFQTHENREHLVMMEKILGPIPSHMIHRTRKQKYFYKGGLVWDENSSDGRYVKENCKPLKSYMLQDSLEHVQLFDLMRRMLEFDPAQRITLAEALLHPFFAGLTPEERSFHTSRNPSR
Chain of UniProt O75676 (whole entry, looked up): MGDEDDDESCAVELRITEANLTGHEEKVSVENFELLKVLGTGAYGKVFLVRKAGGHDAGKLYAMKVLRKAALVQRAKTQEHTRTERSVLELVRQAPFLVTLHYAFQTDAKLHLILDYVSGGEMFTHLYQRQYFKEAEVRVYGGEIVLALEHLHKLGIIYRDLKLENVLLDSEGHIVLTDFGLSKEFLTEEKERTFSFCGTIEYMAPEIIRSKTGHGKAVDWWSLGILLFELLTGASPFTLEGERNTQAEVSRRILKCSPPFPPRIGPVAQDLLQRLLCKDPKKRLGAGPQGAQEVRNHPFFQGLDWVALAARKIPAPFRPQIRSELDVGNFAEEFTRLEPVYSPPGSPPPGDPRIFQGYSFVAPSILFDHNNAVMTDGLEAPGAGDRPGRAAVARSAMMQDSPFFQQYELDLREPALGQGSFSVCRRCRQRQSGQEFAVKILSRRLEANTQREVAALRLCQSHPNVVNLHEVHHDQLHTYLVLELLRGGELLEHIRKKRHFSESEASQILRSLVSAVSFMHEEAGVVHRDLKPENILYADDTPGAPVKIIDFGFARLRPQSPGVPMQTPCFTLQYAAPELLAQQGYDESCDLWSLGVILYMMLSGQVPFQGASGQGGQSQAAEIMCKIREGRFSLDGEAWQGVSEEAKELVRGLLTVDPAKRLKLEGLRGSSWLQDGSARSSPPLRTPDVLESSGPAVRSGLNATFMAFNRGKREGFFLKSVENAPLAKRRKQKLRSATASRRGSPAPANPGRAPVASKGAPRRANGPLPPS
Chain of UniProt Q13237 (whole entry, looked up): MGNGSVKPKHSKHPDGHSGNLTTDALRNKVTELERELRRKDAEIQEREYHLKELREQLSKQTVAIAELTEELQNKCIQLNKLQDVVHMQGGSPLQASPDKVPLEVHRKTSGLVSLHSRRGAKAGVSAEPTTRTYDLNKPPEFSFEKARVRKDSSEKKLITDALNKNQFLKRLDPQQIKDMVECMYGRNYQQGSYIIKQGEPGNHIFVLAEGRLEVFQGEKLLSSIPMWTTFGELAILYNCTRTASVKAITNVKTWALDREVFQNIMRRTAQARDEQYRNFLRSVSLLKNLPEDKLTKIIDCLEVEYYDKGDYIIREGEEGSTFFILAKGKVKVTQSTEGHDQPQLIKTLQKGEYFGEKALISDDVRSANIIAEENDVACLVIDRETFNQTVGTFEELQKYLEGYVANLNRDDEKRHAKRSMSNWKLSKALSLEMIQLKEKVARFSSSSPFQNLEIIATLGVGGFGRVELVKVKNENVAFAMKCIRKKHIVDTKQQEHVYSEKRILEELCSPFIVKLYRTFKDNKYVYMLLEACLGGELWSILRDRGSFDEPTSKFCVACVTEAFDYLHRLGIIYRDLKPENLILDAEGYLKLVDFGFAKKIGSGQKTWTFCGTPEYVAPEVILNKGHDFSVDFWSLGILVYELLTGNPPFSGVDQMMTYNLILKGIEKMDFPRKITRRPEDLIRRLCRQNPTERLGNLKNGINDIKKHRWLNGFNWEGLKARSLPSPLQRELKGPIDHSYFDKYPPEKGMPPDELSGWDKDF
Chain of UniProt Q7KZI7 (whole entry, looked up): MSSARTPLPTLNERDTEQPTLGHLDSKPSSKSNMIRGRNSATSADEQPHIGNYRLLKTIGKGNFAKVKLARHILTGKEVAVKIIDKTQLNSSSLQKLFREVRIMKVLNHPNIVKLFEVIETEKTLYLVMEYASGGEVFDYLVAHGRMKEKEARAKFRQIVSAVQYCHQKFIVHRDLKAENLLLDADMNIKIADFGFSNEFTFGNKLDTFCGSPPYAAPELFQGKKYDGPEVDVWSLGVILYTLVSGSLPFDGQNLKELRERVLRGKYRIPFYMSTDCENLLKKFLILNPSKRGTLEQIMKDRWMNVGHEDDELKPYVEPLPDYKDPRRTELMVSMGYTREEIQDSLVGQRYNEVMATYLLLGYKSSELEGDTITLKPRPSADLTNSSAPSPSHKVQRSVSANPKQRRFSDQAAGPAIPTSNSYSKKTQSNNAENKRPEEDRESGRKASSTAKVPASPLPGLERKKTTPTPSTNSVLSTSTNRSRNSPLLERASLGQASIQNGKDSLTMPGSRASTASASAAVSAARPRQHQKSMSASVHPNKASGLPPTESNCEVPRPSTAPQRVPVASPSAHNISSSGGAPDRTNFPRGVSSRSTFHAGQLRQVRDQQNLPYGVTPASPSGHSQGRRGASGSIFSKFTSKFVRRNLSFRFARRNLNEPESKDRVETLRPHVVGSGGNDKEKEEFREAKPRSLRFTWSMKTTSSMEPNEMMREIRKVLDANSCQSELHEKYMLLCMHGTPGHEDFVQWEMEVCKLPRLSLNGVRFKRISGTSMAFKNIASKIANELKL

Sample 1
Target: RNA binding protein fox-1 homolog 2, RRM domain, GST-SBP tag (RBFOX2, Homo sapiens, UniProt O43251-10, residues 100-194)
Technique: RNA Bind-n-Seq
Form: RNA
Sample: in vitro
Concentration: 365 nM
Notes: natural RNA segment, single round, ends assumed
Reference: no-protein control
Reading: higher = stronger binding
Constant ends, left off below: GGGAGUUCUACAGUCCGACGAUC … UGGAAUUCUCGGGUGCCAA
| Strand | RBNS enrichment (R) |
| --- | --- |
| UCUUUUAAAAAAAUCUGUGAAAUUAACAUGCUUGUGUAUAGCUUUCUAAUAUAUAUAAUAUUAUGGUAAUAGCAGAAGUUUUGUUAUCUUAAUAGCGGGAGGGGGGUAUA | 0.847 |
| UGAUUGAUGGUUGUAUUAUUUUCUCUGAAUCCUCUUCACUGGCCAAAGGUUGGCAGAUAGAGGCUGUUCCCAGGCCAGUGAGCUUUACUUGCAGUGUAAAAGGAGGAAAG | 0.373 |
| CCAGAAGCAGGUAAAUCUGCCUAUGUCCAGAGCCUUGCUUGCUGCUUGAGUCAUGCCUUACCUGCUAUAAGACAGAGUUUCCGCAUAGGUCAGUUCUAUGUGGUGUGGCA | 1.16 |
| CAGGUUUUAGGGUCCUGCAAAAGGCUAGCUCGGCACUACACUAGGGAAUUUGCUCCUGUUCUGUCACUUGUCAUGGUCUUUCUUGGUAUUAAAGGCCACCAUUUGCACAA | 0.7 |
| CCAUACCACUGUUCUUGCUAAAAGGAAGCUGCAUAUUUGUGUUCUUUCAUCUGUGGCUCUUUGCUAAAAAUCCGUAGAUCUGAGCUGCAGGUAAACGGAAGGGGCGUCGU | 0.392 |
| CAGGUAUUGUGUGUAUGCAUUUAGUUGUGCACACACAAAUAUGCUCCUAUACUGGCAUUAGGCGUCUCCUCAUCCCUCACCCUGACCUUUCUCCUGUCCUUUUCUUGGCU | 0.54 |
| CAGGGACUUGCUCAUUCUAGGCAAGUGCUCUACCACUGAGCGGGAGUCACCCCUACUUCCUGGAUAGUAGGCUUUUUUAGUUGUGUGUUUUGUUUUGAGACAGUGUCUCA | 1.27 |
| CAAUGUGAAAAUCCACUCUUUUAUUAUGUUGAGAUUAUCUUCUGAUCAGGAAGUUUGAGUGCUAUGCAAAUAACAUAGUAGUAAUUUCUCUUUGCAUGCCAUGUGUAAUA | 5.65 |

Sample 2
Compound: COc1ccc(S(=O)(=O)N(CCO)c2ccccc2CN(C)CC=Cc2ccc(Cl)cc2)cc1
Effect on: enzyme activity
Action: inhibitor
Concentration: 0.5 µM
Reference: control
| target | remaining activity |
| --- | --- |
| CLK3 (Homo sapiens, UniProt P49761) | 100% |
| MINK1 (Homo sapiens, UniProt Q8N4C8) | 98.1% |
| Cyclin-dependent kinase 9, with cyclin K (CDK9, Homo sapiens, UniProt P50750) | 99.1% |
| PRKG2 (Homo sapiens, UniProt Q13237) | 104% |
| MAPK11 (Homo sapiens, UniProt Q15759) | 103% |
| RPS6KA4 (Homo sapiens, UniProt O75676) | 107% |
| MARK4 (Homo sapiens, UniProt Q96L34) | 102% |
| PAK3 (Homo sapiens, UniProt O75914) | 102% |
| MAP2K1 (Homo sapiens, UniProt Q02750) | 94.3% |
| MARK2 (Homo sapiens, UniProt Q7KZI7) | 95.5% |
| GRK4 (Homo sapiens, UniProt P32298) | 94% |
| AKT2 (Homo sapiens, UniProt P31751) | 106% |
| TLK2 (Homo sapiens, UniProt Q86UE8) | 96.6% |
| DDR2 (Homo sapiens, UniProt Q16832) | 96.8% |

Sample 3
Target: POU domain, class 5, transcription factor 1, POU domain (Pou5f1, Mus musculus, UniProt P20263, residues 131-289)
Chain of UniProt P20263 (131-289, looked up): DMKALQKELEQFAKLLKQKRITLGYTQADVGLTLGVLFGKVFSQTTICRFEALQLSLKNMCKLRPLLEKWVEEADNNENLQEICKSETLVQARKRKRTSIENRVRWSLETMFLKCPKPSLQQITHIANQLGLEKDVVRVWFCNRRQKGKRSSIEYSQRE
Technique: Spec-seq
Form: double-stranded DNA, one strand shown
Sample: in vitro
Concentration: not given
Notes: whole probe, mean of replicates
Reference: not given
Reading: lower = stronger binding
Constant ends, left off below: GAGTCGTCTCGTCAGCACA … CCGTAGAGCACTCAGGTC
| Strand | relative binding energy [ln ratio] |
| --- | --- |
| TGCCGTT | 0.643 |
| AAATAAT | 0.0986 |
| TGCCGAT | 0.61 |
| TGGGAAT | 0.302 |
| TAAACAT | -0.242 |
| TGCACGG | 0.258 |
| TGCCCGG | 0.791 |
| AGATAAT | 0.365 |

Sample 4
Structure (SMILES): CCC(=O)N[C@H]1CC[C@@H](C(=O)N(C)c2ccc(-c3nc4ccccc4o3)cc2)C1
Effect on: cell-free assay
Technique: competition with immobilised ligand
Concentration: 1 µM
| target | remaining binding [%] |
| --- | --- |
| Mast/stem cell growth factor receptor Kit, autoinhibited (KIT, Homo sapiens, UniProt P10721) | 84 |
| PIM1 (Homo sapiens, UniProt P11309) | 100 |
| KIT (Homo sapiens, UniProt P10721, T670I/V559D) | 100 |
| RET (Homo sapiens, UniProt P07949, V804L) | 98 |

For quick reference, copied from above (sample 1):
| Strand | RBNS enrichment (R) |
| --- | --- |
| CCAGAAGCAGGUAAAUCUGCCUAUGUCCAGAGCCUUGCUUGCUGCUUGAGUCAUGCCUUACCUGCUAUAAGACAGAGUUUCCGCAUAGGUCAGUUCUAUGUGGUGUGGCA | 1.16 |
| CAGGUUUUAGGGUCCUGCAAAAGGCUAGCUCGGCACUACACUAGGGAAUUUGCUCCUGUUCUGUCACUUGUCAUGGUCUUUCUUGGUAUUAAAGGCCACCAUUUGCACAA | 0.7 |
| CCAUACCACUGUUCUUGCUAAAAGGAAGCUGCAUAUUUGUGUUCUUUCAUCUGUGGCUCUUUGCUAAAAAUCCGUAGAUCUGAGCUGCAGGUAAACGGAAGGGGCGUCGU | 0.392 |
| CAGGUAUUGUGUGUAUGCAUUUAGUUGUGCACACACAAAUAUGCUCCUAUACUGGCAUUAGGCGUCUCCUCAUCCCUCACCCUGACCUUUCUCCUGUCCUUUUCUUGGCU | 0.54 |
| CAGGGACUUGCUCAUUCUAGGCAAGUGCUCUACCACUGAGCGGGAGUCACCCCUACUUCCUGGAUAGUAGGCUUUUUUAGUUGUGUGUUUUGUUUUGAGACAGUGUCUCA | 1.27 |
